Assay results from different studies.
Compare with care: the assays were run in different laboratories. ± gives the spread as reported.
GLP1R: Glucagon-like peptide 1 receptor (GLP1R, Homo sapiens, UniProt P43220)
UniProt P16152, sequence (whole entry, looked up): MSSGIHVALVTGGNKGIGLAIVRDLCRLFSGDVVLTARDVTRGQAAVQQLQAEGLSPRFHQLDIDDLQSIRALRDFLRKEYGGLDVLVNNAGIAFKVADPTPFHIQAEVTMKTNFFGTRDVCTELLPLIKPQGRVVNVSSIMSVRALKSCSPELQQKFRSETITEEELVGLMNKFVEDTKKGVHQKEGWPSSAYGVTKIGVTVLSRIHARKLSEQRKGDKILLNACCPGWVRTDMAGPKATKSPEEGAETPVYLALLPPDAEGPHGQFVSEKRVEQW

SMILES	tested on	test	system	conditions	scale	measurement	result
CC(=O)N1CCC(C(=O)N2CCN3C(=O)c4cc(-c5ccccc5)ccc4NC(=O)C3C2)CC1 (stereo not shown)	Salmonella typhimurium		TA100	1.58 µg/plate, together with: rat liver S9		revertants per plate	113
[Cl-].[Cl-].[Pt+2].[Ru+2].c1ccc(-c2nccnc2-c2ccccn2)nc1.c1cnc2c(c1)ccc1cccnc12.c1cnc2c(c1)ccc1cccnc12	Danio rerio		embryos	90 µM, 96 h		hatching rate	3.33 ± 3.1%
CC[C@H](C)[C@H](NC(=O)[C@H](Cc1ccccc1)NC(=O)[C@H](CCC(=O)O)NC(=O)[C@H](CCCNC(=N)N)NC(=O)[C@H](C)NC(=O)[C@H](C)NC(=O)[C@H](CCC(N)=O)NC(=O)[C@H](CCC(=O)O)NC(=O)[C@H](CCC(=O)O)NC(=O)[C@H](CC(C)C)NC(=O)[C@H](Cc1ccc(O)cc1)NC(=O)[C@H](CO)NC(=O)[C@H](CO)NC(=O)[C@@H](NC(=O)[C@H](CC(=O)O)NC(=O)[C@H](CO)NC(=O)[C@@H](NC(=O)[C@H](Cc1ccccc1)NC(=O)[C@@H](NC(=O)CNC(=O)[C@H](CCC(=O)O)NC(=O)[C@H](C)NC(=O)CCc1cnc[nH]1)[C@@H](C)O)[C@@H](C)O)C(C)C)C(=O)N[C@@H](C)C(=O)N[C@@H](Cc1c[nH]c2ccccc12)C(=O)N[C@@H](CC(C)C)C(=O)N[C@H](C(=O)N[C@@H](CCCNC(=N)N)C(=O)NCC(=O)N[C@@H](CCCNC(=N)N)C(=O)N[C@@H](CCCCNC(=O)COCCOCCNC(=O)COCCOCCNC(=O)CC[C@H](NC(=O)CCCCCCCCCCCCCCCCC(=O)O)C(=O)O)C(=O)NCC(=O)NCC(=O)N[C@@H](CO)C(=O)N[C@@H](CCCCNC(=O)[C@H](CCCCNc1c(NCCCCCN(O)C(=O)CCC(=O)NCCCCCN(O)C(=O)CCC(=O)NCCCCCN(O)C(C)=O)c(=O)c1=O)Nc1c(NCCCCCN(O)C(=O)CCC(=O)NCCCCCN(O)C(=O)CCC(=O)NCCCCCN(O)C(C)=O)c(=O)c1=O)C(=O)O)C(C)C	GLP1R	cAMP reporter gene, agonist, CRE luciferase	BHK	without Zr, 1% HSA		EC50	0.14 nM
COc1ccc(C[C@H](NC(=O)[C@H](C)NC(=O)CN2CCOCC2)C(=O)N[C@@H](Cc2ccccc2)C(=O)C2(C)CO2)cc1 (stereo in doubt)	Plasmodium falciparum		NF54, artemisinin-sensitive		baseline: HEK-293T CC50 over IC50	selectivity ratio	> 14400
CO[C@H]1C[C@@H]2CC[C@@H](C)[C@@](O)(O2)C(=O)C(=O)N2CCCC[C@H]2C(=O)O[C@H]([C@H](C)C[C@@H]2CC[C@@H](OC(=O)NCCOCCOCCOCCOCCOCCOCCOCCOCCC(=O)N3CCc4cc(Cn5nc(-c6ccc7oc(N)nc7c6)c6c(N)ncnc65)ccc4C3)[C@H](OC)C2)C[C@@H](O)[C@H](C)/C=C(\C)[C@@H](O)[C@@H](OC)C(=O)[C@H](C)C[C@H](C)/C=C/C=C/C=C/1C			patients with advanced solid tumours	intravenous, 8 mg weekly, any grade		AE leading to discontinuation	12.5%
CNC(=O)c1c(N(C)N=O)ncn1C	Salmonella typhimurium	mutagenicity, Ames plate incorporation	TA100	150 µg/plate, without S9, methanol		revertant colonies per plate	144 ± 20
CCCCc1ccc(CNc2nc(N(C)C)nc(N(C)C)c2/N=N/c2ccc(Cl)cc2)cc1	Ostrinia furnacalis	leaf dipping		50 mg/L, 96 h		mortality	70.3 ± 5.8%
CC[C@H](C)[C@H](NC(=O)[C@H](Cc1ccccc1)NC(=O)[C@H](CCC(=O)O)NC(=O)[C@H](CCCNC(=N)N)NC(=O)[C@H](C)NC(=O)[C@H](C)NC(=O)[C@H](CCC(N)=O)NC(=O)[C@H](CCC(=O)O)NC(=O)[C@H](CCC(=O)O)NC(=O)[C@H](CC(C)C)NC(=O)[C@H](Cc1ccc(O)cc1)NC(=O)[C@H](CO)NC(=O)[C@H](CO)NC(=O)[C@@H](NC(=O)[C@H](CC(=O)O)NC(=O)[C@H](CO)NC(=O)[C@@H](NC(=O)[C@H](Cc1ccccc1)NC(=O)[C@@H](NC(=O)CNC(=O)[C@H](CCC(=O)O)NC(=O)[C@H](C)NC(=O)CCc1cnc[nH]1)[C@@H](C)O)[C@@H](C)O)C(C)C)C(=O)N[C@@H](C)C(=O)N[C@@H](Cc1c[nH]c2ccccc12)C(=O)N[C@@H](CC(C)C)C(=O)N[C@H](C(=O)N[C@@H](CCCCNc1c(NCCCCCN(O)C(=O)CCC(=O)NCCCCCN(O)C(=O)CCC(=O)NCCCCCN(O)C(C)=O)c(=O)c1=O)C(=O)NCC(=O)N[C@@H](CCCNC(=N)N)C(=O)N[C@@H](CCCCNC(=O)COCCOCCNC(=O)COCCOCCNC(=O)CC[C@H](NC(=O)CCCCCCCCCCCCCCCCC(=O)O)C(=O)O)C(=O)NCC(=O)NCC(=O)N[C@@H](CO)C(=O)N[C@@H](CCCCNc1c(NCCCCCN(O)C(=O)CCC(=O)NCCCCCN(O)C(=O)CCC(=O)NCCCCCN(O)C(C)=O)c(=O)c1=O)C(=O)O)C(C)C	GLP1R	cAMP reporter gene, agonist, CRE luciferase	BHK	without Zr, 1% HSA		EC50	0.34 nM
O=[N+]([O-])c1ccc(N2CCN(CCC(O)c3ccc(F)cc3)CC2)c(C(F)(F)F)c1 (stereo not shown)	Salmonella typhimurium	SOS/umu test	TA1535/pSK1002	0.016 mg/mL, 4 h, with S9, full range		survival	81.6%
[Cl-].[Cl-].[Pt+2].[Ru+2].c1ccc(-c2nc3ccccc3nc2-c2ccccn2)nc1.c1cnc2c(c1)ccc1cccnc12.c1cnc2c(c1)ccc1cccnc12	Danio rerio		embryos	30 µM, 96 h		survival rate	80 ± 1.6%
OC(CCN1CC=C(c2ccc(F)cc2)CC1)c1ccc(F)c2ccccc12 (stereo not shown)	Salmonella typhimurium	SOS response, SOS/umu test	TA1535/pSK1002, TGA medium	0.000244 mg/mL, 4 h, together with: 10% rat liver S9	baseline: untreated	induction factor	1
C[C@H]1CN(c2n[nH]c3nc(N[C@H]4CC[C@H](NS(=O)(=O)CCC(F)(F)F)CC4)ncc23)CCO1	Carbonyl reductase [NADPH] 1 (CBR1, Homo sapiens, UniProt P16152)	inhibitor, Kinobeads competition profiling		0.032 µM	baseline: vehicle	relative abundance	1
CN(N=O)c1ccc(F)cc1	Salmonella typhimurium and Escherichia coli		TA98, TA100, TA1535, TA1537, WP2uvrA pKM101, methanol	concentration not given, 3 days, together with: hamster S9 10%		toxic concentration	≥ 1500 µg/plate
CN1CC[C@@H](c2c(O)cc(O)c3c(=O)cc(-c4ccc(C(F)(F)F)cc4Cl)oc23)[C@@H]1CO		refers to: Hypotension	relapsed or refractory haematological malignancies	oral, dose not given, grade 3 to 4		adverse event incidence	7.5%
CC[C@H](C)[C@H](NC(=O)[C@H](Cc1ccccc1)NC(=O)[C@H](CCC(=O)O)NC(=O)[C@H](CCCNC(=N)N)NC(=O)[C@H](C)NC(=O)[C@H](C)NC(=O)[C@H](CCC(N)=O)NC(=O)[C@H](CCC(=O)O)NC(=O)[C@H](CCC(=O)O)NC(=O)[C@H](CC(C)C)NC(=O)[C@H](Cc1ccc(O)cc1)NC(=O)[C@H](CO)NC(=O)[C@H](CO)NC(=O)[C@@H](NC(=O)[C@H](CC(=O)O)NC(=O)[C@H](CO)NC(=O)[C@@H](NC(=O)[C@H](Cc1ccccc1)NC(=O)[C@@H](NC(=O)CNC(=O)[C@H](CCC(=O)O)NC(=O)[C@H](C)NC(=O)CCc1c[nH]cn1)[C@@H](C)O)[C@@H](C)O)C(C)C)C(=O)N[C@@H](C)C(=O)N[C@@H](Cc1c[nH]c2ccccc12)C(=O)N[C@@H](CC(C)C)C(=O)N[C@H](C(=O)N[C@@H](CCCNC(=N)N)C(=O)NCC(=O)N[C@@H](CCCNC(=N)N)C(=O)N[C@@H](CCCCNC(=O)COCCOCCNC(=O)COCCOCCNC(=O)CC[C@H](NC(=O)CCCCCCCCCCCCCCCCC(=O)O)C(=O)O)C(=O)NCC(=O)NCC(=O)N[C@@H](CO)C(=O)N[C@@H](CCCCNc1c(NCCCCCN(O)C(=O)CCC(=O)NCCCCCN(O)C(=O)CCC(=O)NCCCCCN(O)C(C)=O)c(=O)c1=O)C(=O)O)C(C)C [zirconium-89 labelled]			rat, bone marrow	iv, 3 nmol/kg, 72 h, ex vivo		tissue uptake	0.49 %ID/g
COc1cc2c(Oc3ccc4[nH]c(C)cc4c3F)ccnc2cc1OCC1(N)CC1			paediatric recurrent refractory sarcoma	10 mg		grade 1 or 2 ALT elevation	0%
Nc1nc2c(ncn2COCCO)c(=O)[nH]1	Herpes simplex virus 2		BEAS-2B, compound-resistant		baseline: CC50 over IC50	therapeutic index	2.16
COc1cccc(-c2n[nH]c(SCc3ccccn3)n2)c1OC	Salmonella typhimurium	Ames test, plate incorporation	TA1537	2.0 mg/plate, without S9		revertant colonies per plate	3
CCCC[C@H](NC(=O)C1CN(C)C1)c1ncc(-c2cc3ccccc3nc2OC)[nH]1	Salmonella enterica serovar Typhimurium		TA1535, TA98, TA100	with and without S9		Ames mutagenicity	negative
O=[N+]([O-])c1ccc(N2CCC(NCCC(O)c3ccc(F)c4ccccc34)CC2)c(C(F)(F)F)c1 (stereo not shown)	Salmonella typhimurium	SOS response, SOS/umu test	TA1535/pSK1002, TGA medium	7.63e-06 mg/mL, 4 h, together with: 10% rat liver S9	baseline: untreated	induction factor	1
[Cl-].[Cl-].[Pt+2].[Ru+2].c1ccc(-c2nc3cc4ccccc4cc3nc2-c2ccccn2)nc1.c1cnc2c(c1)ccc1cccnc12.c1cnc2c(c1)ccc1cccnc12	Danio rerio		embryos	90 µM, 12 h		survival rate	76.7 ± 3.1%
Cc1cc(C(=O)NC(C)(C)COc2cccc3c2C(N)=NS(=O)(=O)N3)cc(C)n1	Salmonella typhimurium	Ames test, initial	TA1537	500 µg/plate, together with: rat liver S9	baseline: solvent control	revertant ratio	0.8
